Results from different studies.
Every numbered part comes from another study and shows a few of its results, in no order. Substitutions count along the parent as printed.

Series 1
Target: Interferon regulatory factor 5, full length, phosphomimetic (IRF5, Homo sapiens, UniProt Q13568-2, residues 1-514, S451D/S453D/S456D/S462D)
Technique: protein-binding microarray
Molecule type: double-stranded DNA, one strand shown
Sample: in vitro
Concentration: 940 nM top
Notes: 60-bp whole probe
Added: salmon DNA 0.4 mg/ml
Baseline: random background probes
Reading: higher = stronger binding
Endpoint: fitted relative affinity
Shared flanks, not repeated: GCCTAGCAC … GTCTTGATTCGCTTGACGCTGCTG
Oligonucleotide = GACGGTATAGGTATCGGGACGTGCTAG; value = 0.875 z-score
Oligonucleotide = TTAGGTATCCTTTTCGTTTAGTGCTAG; value = 1.17 z-score
Oligonucleotide = TTTTGTTGTTTTTTGGTTTCGTGCTAG; value = 4.03 z-score
Oligonucleotide = TTAGGTCTCTTTCTCCTTTAGTGCTAG; value = 1.06 z-score
Oligonucleotide = AAATATTTACCTCTCACGCAGTGCTAG; value = 0.104 z-score
Oligonucleotide = TCACTATTATATATATCACTGTGCTAG; value = 0.839 z-score
Oligonucleotide = CAGGGAATTCACCTGCTGACGTGCTAG; value = -0.693 z-score
Oligonucleotide = CACGGTATCGACTATCGGGACGTGCTA; value = 4.57 z-score

Series 2
Target: CCNF, cyclin fold, Cln2 fusion (human)
Technique: yeast growth competition, sequencing
Sample: yeast
Notes: strong parent motif
Baseline: not given
Reading: higher = stronger binding
Endpoint: normalised enrichment score
Parent: ITGB3BP docking peptide (human); MPVKRSLKLDGLL
Substitution = R5K L9F; value = 4.35
Substitution = D10A; value = 1.74
Substitution = K8A; value = 3.51
Substitution = S6A; value = 6.04

Series 3
Target: Prothrombin, mature alpha-thrombin (F2, Homo sapiens, UniProt P00734)
Technique: aptamer microarray, sandwich
Molecule type: DNA with 2'F-ANA
Sample: in vitro
Concentration: 200 nM
Notes: whole 15-mer aptamer, many near background
Added: Cy3 exosite-II aptamer, 400 nM
Reading: higher = stronger binding
Endpoint: mean fluorescence intensity
Oligonucleotide: GGTTGGTGTGGTTGG
Modification = 2'F-ANA at 2 3 4 5 6 8 10 11 13 14; value = 53.7 a.u.
Modification = 2'F-ANA at 1 4 5 6 8 9 10 12 13 14; value = 52.1 a.u.
Modification = 2'F-ANA at 2 4 9 11 12 13 14; value = 97.6 a.u.
Modification = 2'F-ANA at 3 6 8 10 11 14; value = 387 a.u.
Modification = 2'F-ANA at 1 2 3 4 7 10 11 12 13 15; value = 64.3 a.u.
Modification = 2'F-ANA at 2 5 6 8 9 12 13 14; value = 44.3 a.u.
Modification = 2'F-ANA at 2 6 7 9 10 12 14; value = 89.9 a.u.

Other studies, line by line
Molecule = PhoQ, residues 284 288 289 292 302 303 ASHLAV; target = PhoP, residues 12 14 15 18 19 SQCLL (Escherichia coli, UniProt P23836); test = Sort-seq, item: YFP reporter; test system = E. coli; conditions = PhoQ-PhoP variant library, added: 10 µM Mg2+; how to read = baseline: high Mg2+ state, higher = stronger signaling; endpoint = fold induction; value = 9.96
